Published values gathered from unrelated publications.
Protocols differ between the studies behind these lines. ± marks the error that the study gave. In brackets after ≈: the same amount, converted by molar mass.

SMILES	organism	assay	system	setting	scale	measurement	value
COc1cc(OC)c2c(c1)C(=O)c1cc3oc(=O)cc(-c4ccc(Cl)cc4)c3c(O)c1C2=O	Bacillus cereus	–	MTCC 1306	100 µg/disc	–	zone of inhibition	10 mm
Cc1ncc([N+](=O)[O-])n1CCOCc1nnc(SCC(=O)c2ccc([N+](=O)[O-])cc2)o1	Enterobacter cloacae	–	DMSO	60 µg/mL, 24 h, 37 °C	–	inhibition zone diameter	15 to 20 mm
COC(=O)/C=C/c1ccc(OCCNS(=O)(=O)c2ccc(NC(C)=O)cc2)c(OC)c1	tobacco mosaic virus	half-leaf method	tobacco	500 µg/mL	–	inactivation activity	87.3 ± 2.5%
CCCCCCCCC1=C(CCCCCCCC(=O)OC)C1	Toxoplasma gondii	–	Vero, RH	–	baseline: CC50 over EC50	selectivity index	> 3.3
O=C(Nc1ccc2c(c1)CN(c1ccc(Cl)c(Cl)c1)C2=O)N1CCN(c2ccc(Cl)cc2)CC1	Trypanosoma brucei brucei	parasite growth, resazurin	Squib 427	3 d	–	IC50	6900 nM
O=C(Nc1ccccc1)N1CCCN2CCC(c3ccc(C#Cc4cncnc4)cc3)C2C1 (centres unmarked)	Toxoplasma gondii	parasite growth	HFF, RH type I luciferase	–	–	EC90	> 10 µM
CCCCCCCCCC1CC2CCCC3CC(CCCCCCCCC)NC(=N1)N23 (centres unmarked)	Candida krusei	fungal growth	ATCC 6258	–	–	MFC	2.9 µM (≈ 1.25 µg/mL)
CN[C@H](CC(C)C)C(=O)N[C@H]1C(=O)N[C@@H](CC(N)=O)C(=O)N[C@H]2C(=O)N[C@H]3C(=O)N[C@H](C(=O)N[C@H](C(=O)O)c4cc(O)cc(O)c4-c4cc3ccc4O)[C@H](O)c3ccc(c(Cl)c3)Oc3cc2cc(c3O[C@@H]2O[C@H](CO)[C@@H](O)[C@H](O)[C@H]2O[C@H]2C[C@](C)(NCc3ccc(C(=O)OCCCCCCN(Cc4ccccn4)Cc4ccccn4)cc3)[C@H](O)[C@H](C)O2)Oc2ccc(cc2Cl)[C@H]1O	Bacillus subtilis	protein synthesis, refers to: LiaH.2	168	concentration not given, 10 min, at peak effective concentration	baseline: untreated	regulation factor	131 ± 66
C#CCN1CCc2c3n(c4ccccc24)C(=O)C(=C)C3(C(=O)OC)C1 (centres unmarked)	hepatitis B virus	HBsAg secretion	HepAD38	–	baseline: CC50 over IC50	selectivity index	5.52
N=C(NO)NN=Cc1nccc2ccccc12	human mastadenovirus C	plaque reduction	A549, McEwen	–	–	inhibitory concentration	< 100 µM
CCC(=O)Nc1cc(Nc2cc(NC3CC3)n3ncc(C#N)c3n2)ccc1N1CCNCC1	murine hepatitis virus	viral replication, nanoluciferase reporter	DBT, MHV-nLuc	–	–	IC50	> 1000 nM
c1ccc(-c2nc(-c3ccc4ccccc4c3)c[nH]2)cc1	Schistosoma mansoni	–	adult male worms	50 µM	–	worm killing	0%
O=C1NCCCN2CCC(c3ccc(C#Cc4ccccc4)cc3)C12 (centres unmarked)	Toxoplasma gondii	–	HFF, RH (type I)	concentration not given	–	growth inhibition	inactive
Cc1ccc(NCC(=O)Nc2ccc(F)c(Cl)c2)cc1S(=O)(=O)N1CCOCC1	Plasmodium cynomolgi	–	liver-stage large forms	10 µM	–	antiplasmodial activity	no effect
C[C@@H]1C(=O)O[C@@H](C)/C=C/C=C\[C@@H](C)[C@@H]2C=C[C@@H]3C[C@@]4(C)O[C@H]4[C@@H](C)[C@H]3[C@@H]2C(=O)C(Cl)(Cl)C1=O	Staphylococcus aureus	–	MSSA and MRSA clinical isolates	–	–	MIC50	0.05 µg/mL (≈ 0.101 µM)
O=c1c(-c2nc3ccccc3s2)cc2c(n1NS(=O)(=O)c1ccc(Cl)cc1)CCCCCC2	Coxsackievirus B4	viral replication, plaque reduction	BGM cells	–	baseline: CC50 over IC50	selectivity index	3.23
Fc1ccc2c(c1)c1nc3ccc(Br)cc3c-1cn2Cc1cn(-c2ccccc2I)nn1	Giardia duodenalis trophozoites	UHPLC-Q-TOF-MS, refers to: PI(O-18:0/0:0)	–	IC50, 0.2033 h	baseline: 0.25% DMSO	fold change	-73.9
CNC1=C([N+](=O)[O-])C2(C(=O)Nc3ccccc32)C2=C(CCCC2=O)O1 (centres unmarked)	Salmonella enterica	microbial growth	TYPHIMURIUM	250 µg/mL, 24 h	–	inhibition	73.7%
COc1ccc(NC(=O)N2CCCN3CC[C@H](c4ccc(-c5ccccc5)cc4)[C@@H]3C2)cc1	Toxoplasma gondii	–	HFF, RH (type I)	concentration not given	–	growth inhibition	inactive

SMILES	organism	assay	system	setting	scale	measurement	value
CCOC(=O)/C=C/c1ccc(OCCNS(=O)(=O)c2ccc(C)cc2)c(OC)c1	tobacco mosaic virus	inactivation activity, half-leaf method	–	–	–	EC50	206 ± 2.3 µg/mL
N=C(NO)NN=Cc1nccc2c([N+](=O)[O-])cccc12	human mastadenovirus C	plaque reduction	A549, McEwen	–	–	inhibitory concentration	< 100 µM
CCCCn1c2ccccc2c2ccnc(-c3ccc(OC)cc3)c21	Echinococcus granulosus	eosin staining	sensu stricto protoscoleces	40 µM, 48 h, 10% fetal bovine serum	–	viability	76.3 ± 1.82%
Cc1cc(O)cc2c1C(=O)c1c(cc3oc(=O)cc(-c4ccc(Cl)cc4)c3c1O)C2=O	Bacillus cereus	–	MTCC 1306	100 µg/disc	–	zone of inhibition	8 mm
O=C[C@H](C[C@H]1CCNC1=O)NC(=O)[C@H](CC1CCCCC1)NC(=O)OCc1cccc(Cl)c1	Enterovirus D68	viral replication	WI-38	37 °C	–	EC50	80 ± 20 nM
COc1ccc(NC(=O)N2CCCN3CCC(c4ccc(C#CC5CC5)cc4)C3C2)cc1 (centres unmarked)	Toxoplasma gondii	–	HFF, RH (type I)	concentration not given	–	growth inhibition	inactive
CC(=O)OC[C@H]1O[C@@H]([Se]C(C)=O)[C@H](OC(C)=O)[C@@H](OC(C)=O)[C@@H]1OC(C)=O	Trypanosoma brucei brucei	flow cytometry	bloodstream form, hGrx1-roGFP2	EC50, 1 h	baseline: diamide 500 µM maximum and minimum oxidation	biosensor oxidation	49%
CC(=O)[O-].O.O.O.O.[Co+2].[O-]c1ccc(Br)cc1C=NCCN1CCOCC1	Bacillus cereus	–	–	20 µL of 100 µM per disc	–	inhibition zone diameter	15 mm
CC(=O)OC[C@H]1O[C@@H]([Se]c2ccccc2)[C@H](OC(C)=O)[C@@H](OC(C)=O)[C@@H]1OC(C)=O	Trypanosoma brucei brucei	parasite viability	bloodstream form	5 µM	–	activity	inactive
O=C(N[C@@H](Cc1ccccc1)C(=O)N[C@@H](C[C@H]1CCNC1=O)C(=O)C(=O)NC1CC1)OCc1ccccc1	human rhinovirus 51	viral replication	WI-38	37 °C	–	EC50	70 ± 30 nM
COc1ccc(NC(=O)N2CCCN3CCC(c4ccc(C#CCc5ccccc5)cc4)C3C2)cc1 (centres unmarked)	Toxoplasma gondii	parasite growth	HFF, RH type I luciferase	–	–	EC90	> 10 µM
O=C(CCNC(=O)c1ccsc1)Nc1cccc(Oc2ccc(Cl)cc2)c1	hepatitis B virus	RT-qPCR	HepG2.2.15.7	10 µM	baseline: control	pgRNA level	1.47 fold
O=S(=O)(c1ccccc1)N(CCc1nnc(S)o1)c1ccc(Cl)cc1	Colletotrichum capsici	cup plate method	–	100 µg/mL	baseline: fluconazole	relative inhibition	127%
CCN(CC)CC#CCNc1ccnc2cc(Cl)ccc12	Plasmodium falciparum	parasite growth	DD2	blood stage	–	IC50	68 nM
C[C@@H]1C[C@H](Nc2ccccc2)c2cc(F)ccc2N1C(=O)c1ccc([N+](=O)[O-])cc1	Aedes albopictus	–	–	1 µM, second-instar larvae	–	logit mortality	-0.28
O=C[C@H](C[C@H]1CCNC1=O)NC(=O)[C@H](CC1CCCCC1)NC(=O)OCc1ccccc1	Enterovirus D68	viral replication	WI-38	37 °C	–	EC50	60 ± 10 nM
C[C@@H]1C[C@H](Nc2ccccc2)c2cc(F)ccc2N1C(=O)c1ccc(Br)cc1	Aedes albopictus	–	–	1 µM, second-instar larvae	–	logit mortality	0.61
O=C(Nc1ccccc1Nc1ccccc1)c1nccnc1Cl	Sclerotinia sclerotiorum	microbial growth	–	50 µg/mL	–	inhibition	32.9%
O=C(N[C@@H](CC1CCCCC1)C(=O)N[C@@H](C[C@H]1CCNC1=O)C(=O)C(=O)NC1CC1)OCc1cccc(Cl)c1	human rhinovirus 1B	viral replication	WI-38	–	–	EC90	0.45 µM

SMILES	organism	assay	system	setting	scale	measurement	value
O=C(C1CCN(c2nnnn2-c2ccccc2)CC1)N1CCCc2ccccc21	Plasmodium falciparum	parasite growth, SYBR Green	3D7	72 h, blood stage	–	IC50	1800 nM
COC1C=COC2(C)Oc3c(C)c(O)c4c(c3C2=O)C2=NC3(CCN(CC(C)C)CC3)NC2=C(NC(=O)C(C)=CC=CC(C)C(O)C(C)C(O)C(C)C(OC(=O)Nc2cccnn2)C1C)C4=O (centres unmarked)	Mycobacteroides abscessus	–	76 clinical isolates	3 subspecies	–	MIC90	0.4 µM (≈ 0.37 µg/mL)
C#CCN1CCC23C(=C(C(=O)OC)CC(C(=O)OC)C12)Nc1ccccc13 (centres unmarked)	hepatitis B virus	cccDNA level, qPCR	HuH7-NTCP	5 µM	–	inhibition	~20%
C[C@@H](c1ccn(Cc2ccc(I)cc2)n1)[C@](O)(Cn1cnnn1)c1ccc(F)cc1F	Candida krusei	growth curve	4946, YPD medium	0.25 µg/mL	–	growth inhibition	inhibited
CCCCn1c2ccccc2c2ccnc(-c3cc(OC)c(OC)c(OC)c3)c21	Echinococcus granulosus	eosin staining	sensu stricto protoscoleces	40 µM, 48 h, 10% fetal bovine serum	–	viability	80.2 ± 3.9%
Cc1ccc(C(=O)N2c3ccc(F)cc3[C@@H](Nc3ccccc3)C[C@H]2C)cc1	Aedes albopictus	–	–	1 µM, second-instar larvae	–	logit mortality	0.7
Cc1ncncc1-c1ccc(C(=O)N2CC[C@H](C(=O)Nc3cc(F)c(F)c(F)c3)C2)[nH]1	hepatitis B virus	refers to: intracellular HBV DNA	HepG2.2.15	1 µM, 144 h	baseline: vehicle	HBV DNA remaining	39%
Cc1cc(N2CCC(C#N)(C3(C)CC3)C2=O)cc(C(=O)NCc2cc(F)cc(-c3cnn(C)c3)c2)n1 (racemic)	Plasmodium falciparum	intraerythrocytic growth, DAPI staining	3D7	72 h	–	IC50	10 nM
O=C(Nc1ccccc1)N1CCCN2CCC(c3ccc(C#Cc4ccncc4)cc3)C2C1 (centres unmarked)	Toxoplasma gondii	parasite growth	HFF, RH type I luciferase	–	–	EC90	4.88 µM
CC1(CCCCCCCCCCCCCCOCCCOP(=O)(O)CO[C@H](CO)Cn2ccc(N)nc2=O)COC1	human betaherpesvirus 5	cytopathic effect	AD169	–	baseline: CC50 over EC50	selectivity index	> 3000
C#CCN1CCc2c(n(C(=C)C(=O)OC)c3ccccc23)C(C(=O)OC)C1 (centres unmarked)	hepatitis B virus	HBsAg secretion	HepAD38	–	baseline: CC50 over IC50	selectivity index	9.48
CC[C@@H](C)[C@@H](NC(=O)[C@@H](C)NC(=O)[C@@H](CCCCN)NC(=O)[C@@H](CC(C)C)NC(=O)[C@@H](CC(C)C)NC(=O)[C@H](NC(=O)[C@@H](CCCCN)NC(=O)[C@@H](CC(C)C)NC(=O)[C@@H](C)NC(=O)[C@@H](CCCCN)NC(=O)[C@@H](CCCCN)NC(=O)[C@@H](CCCCN)NC(=O)[C@@H](C)NC(=O)[C@@H](CCCCN)NC(=O)[C@@H](CO)NC(=O)[C@@H](Cc1ccccc1)NC(=O)[C@H](NC(=O)[C@@H](CCCCN)NC(=O)[C@@H](CC(C)C)NC(=O)[C@@H](Cc1ccccc1)NC(=O)[C@@H](CO)NC(=O)[C@@H](CCCCN)NC(=O)[C@@H](Cc1c[nH]c2ccccc12)NC(=O)[C@@H](CCCCN)NC(C)=O)[C@H](C)O)[C@H](C)O)C(=O)N[C@H](CO)C(=O)N[C@H](CCCCN)C(N)=O	Acinetobacter baumannii	–	11 isolates	–	–	MIC geometric mean	0.8 µM (≈ 2.45 µg/mL)
Oc1c(Br)cc(Br)c2nc3c(C(F)(F)F)cc(C(F)(F)F)cc3nc12	Staphylococcus aureus	microbial killing	129	clinical isolate	–	MBC	0.59 µM (≈ 0.289 µg/mL)
Cc1ccc(NC(=O)N2CCCN3CCC(c4ccc(C#CC5=CCCC5)cc4)C3C2)cc1 (centres unmarked)	Toxoplasma gondii	parasite growth	HFF, RH type I luciferase	–	–	EC90	3.09 ± 0.19 µM
CCCCCC1CC2CCCC3CC(C)N=C(N1)N32 (centres unmarked)	Candida krusei	fungal growth	ATCC 6258	–	–	IC50	8980 nM
COc1c2c(cc3oc(=O)cc(-c4ccccc4)c13)C(=O)c1cc(C)cc(O)c1C2=O	Bacillus cereus	–	MTCC 1306	100 µg/disc	–	inhibition zone diameter	8 mm
COc1ccc(NC(=O)N2CCCN3CCC(c4ccc(C#CC5CCCCC5)cc4)C3C2)cc1 (centres unmarked)	Toxoplasma gondii	parasite growth	HFF, RH type I luciferase	–	–	EC90	0.71 ± 0.22 µM
C[C@@H]1C[C@H](Nc2ccccc2)c2cc(F)ccc2N1C(=O)c1ccc(N)cc1	Aedes albopictus	–	–	1 µM, second-instar larvae	–	logit mortality	-1.24

For quick reference, copied from above:
SMILES	organism	assay	system	setting	scale	measurement	value
C#CCN1CCC23C(=C(C(=O)OC)CC(C(=O)OC)C12)Nc1ccccc13 (centres unmarked)	hepatitis B virus	cccDNA level, qPCR	HuH7-NTCP	5 µM	–	inhibition	~20%
COC(=O)/C=C/c1ccc(OCCNS(=O)(=O)c2ccc(NC(C)=O)cc2)c(OC)c1	tobacco mosaic virus	half-leaf method	tobacco	500 µg/mL	–	inactivation activity	87.3 ± 2.5%
O=C[C@H](C[C@H]1CCNC1=O)NC(=O)[C@H](CC1CCCCC1)NC(=O)OCc1cccc(Cl)c1	Enterovirus D68	viral replication	WI-38	37 °C	–	EC50	80 ± 20 nM
Cc1ncc([N+](=O)[O-])n1CCOCc1nnc(SCC(=O)c2ccc([N+](=O)[O-])cc2)o1	Enterobacter cloacae	–	DMSO	60 µg/mL, 24 h, 37 °C	–	inhibition zone diameter	15 to 20 mm
COc1ccc(NC(=O)N2CCCN3CCC(c4ccc(C#CC5CC5)cc4)C3C2)cc1 (centres unmarked)	Toxoplasma gondii	–	HFF, RH (type I)	concentration not given	–	growth inhibition	inactive
CC(=O)[O-].O.O.O.O.[Co+2].[O-]c1ccc(Br)cc1C=NCCN1CCOCC1	Bacillus cereus	–	–	20 µL of 100 µM per disc	–	inhibition zone diameter	15 mm
Cc1ccc(NCC(=O)Nc2ccc(F)c(Cl)c2)cc1S(=O)(=O)N1CCOCC1	Plasmodium cynomolgi	–	liver-stage large forms	10 µM	–	antiplasmodial activity	no effect
Cc1cc(N2CCC(C#N)(C3(C)CC3)C2=O)cc(C(=O)NCc2cc(F)cc(-c3cnn(C)c3)c2)n1 (racemic)	Plasmodium falciparum	intraerythrocytic growth, DAPI staining	3D7	72 h	–	IC50	10 nM
C[C@@H]1C(=O)O[C@@H](C)/C=C/C=C\[C@@H](C)[C@@H]2C=C[C@@H]3C[C@@]4(C)O[C@H]4[C@@H](C)[C@H]3[C@@H]2C(=O)C(Cl)(Cl)C1=O	Staphylococcus aureus	–	MSSA and MRSA clinical isolates	–	–	MIC50	0.05 µg/mL (≈ 0.101 µM)
